{"data": "Published values collected from several papers", "note": "Each numbered part is a random draw from the data of one study; scales do not carry over between parts. Several values in a cell are separate wells, animals, samples, runs or records."}
{"data": "Study 1", "SMILES": "C#CCN1C(=O)C(O)(C(=O)O)Oc2cc(F)ccc21 (centres unmarked)"}
{"organism": "Arabidopsis thaliana", "assay": "root length", "system": "Col-0", "conditions": "100 µg/mL, 7 days, seed germination, dark", "inhibition": "99.2%"}
{"organism": "Alopecurus japonicus", "assay": "fresh weight", "conditions": "150 g ai/ha, pre-emergence treatment", "inhibition": "38% and 38.5% and 41.1%"}
{"organism": "Arabidopsis thaliana", "assay": "root length", "system": "Col-0", "conditions": "3.13 µg/mL, 7 days, seed germination, dark", "inhibition": "12.5%"}
{"data": "Further values, each from its own experiment", "PKMYT1": "Membrane-associated tyrosine- and threonine-specific cdc2-inhibitory kinase (PKMYT1, Homo sapiens, UniProt Q99640)", "UniProt Q99640, sequence (whole entry, looked up)": "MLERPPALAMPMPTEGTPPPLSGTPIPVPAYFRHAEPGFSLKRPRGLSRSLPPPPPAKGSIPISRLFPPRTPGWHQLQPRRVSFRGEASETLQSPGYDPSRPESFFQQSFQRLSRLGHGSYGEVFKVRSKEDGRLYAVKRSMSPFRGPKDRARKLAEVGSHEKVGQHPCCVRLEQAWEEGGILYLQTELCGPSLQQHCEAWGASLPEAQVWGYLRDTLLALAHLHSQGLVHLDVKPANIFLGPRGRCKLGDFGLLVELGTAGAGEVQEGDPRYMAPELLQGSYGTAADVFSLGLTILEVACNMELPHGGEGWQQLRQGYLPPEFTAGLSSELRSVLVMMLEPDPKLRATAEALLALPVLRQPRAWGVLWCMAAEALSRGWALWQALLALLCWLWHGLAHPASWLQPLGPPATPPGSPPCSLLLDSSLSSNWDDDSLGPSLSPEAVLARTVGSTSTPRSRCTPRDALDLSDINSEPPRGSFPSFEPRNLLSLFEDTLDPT"}
{"Structure (SMILES)": "Cc1ccc(O)c(C)c1-c1cnc2[nH]c(-c3cnc(N4CCC(CN5CCN(c6ccc(C(=O)NC7CCC(=O)NC7=O)c(F)c6)CC5)CC4)nc3)cc2c1C#N (racemic)", "tested on": "PKMYT1", "assay": "binding, HTRF", "conditions": "4.12 nM", "measurement": "inhibition", "result": "42.8% and 43.5%"}
{"Structure (SMILES)": "Cn1cc(-c2cccc(CN3CCC4(CC3)COc3c4ccc4c3CN([C@H]3CCC(=O)NC3=O)C4=O)c2)cn1", "system": "Caco-2", "measurement": "Papp A→B", "result": "5.9 ×10⁻⁶ cm/s"}
{"Structure (SMILES)": "Cc1ccc(O)c(C)c1-c1cnc2[nH]c(-c3cnc(N4CCC(CN5CCN(c6ccc7c8c(cccc68)C(=O)N7C6CCC(=O)NC6=O)CC5)CC4)nc3)cc2c1C#N (racemic)", "tested on": "PKMYT1", "assay": "binding, HTRF", "conditions": "4.12 nM", "measurement": "inhibition", "result": "25% and 20.3%"}
{"Structure (SMILES)": "COc1cc(C(=O)OCCCN2CCCN(CCCOC(=O)c3cc(OC)c(OC)c(OCc4ccc([N+](=O)[O-])cc4)c3)CC2)cc(OC)c1OC", "system": "male CD-1 mouse, brain", "conditions": "subcutaneous, 30 mg/kg, 24 h", "measurement": "concentration", "result": "3.27 ng/mL"}
{"Structure (SMILES)": "Cc1cc(-c2cnc(N)c3c(-c4ccc5scnc5c4)csc23)n(C)n1", "assay": "CCK-8", "system": "L929, mouse", "conditions": "12.5 µM, MEM with 10% FBS, with: zVAD", "measurement": "viability", "result": "56.9% and 63.3% and 59.6% and 58%"}
{"note": "Some of these lines once more (further values, each from its own experiment):"}
{"Structure (SMILES)": "Cc1ccc(O)c(C)c1-c1cnc2[nH]c(-c3cnc(N4CCC(CN5CCN(c6ccc7c8c(cccc68)C(=O)N7C6CCC(=O)NC6=O)CC5)CC4)nc3)cc2c1C#N (racemic)", "tested on": "PKMYT1", "assay": "binding, HTRF", "conditions": "4.12 nM", "measurement": "inhibition", "result": "25% and 20.3%"}
